Experimental data collected from several papers.
Numbered parts are unrelated; each lists some results of a single study. Changes are numbered by the printed parent chain.

Sample 1 — target: CCNF, cyclin fold, Cln2 fusion (human); method: yeast growth competition, sequencing; sample: yeast; notes: strong parent motif; baseline: not given; reading: higher = stronger binding; starting sequence: viral docking peptide; KGVKRKLFAEDSS
Under “normalised enrichment score”, `K6S` is recorded as 6.98.
`A9E` — result for “normalised enrichment score”: 7.65.
For `F8L`, “normalised enrichment score” read 2.09.
`D11R`: “normalised enrichment score” 7.59.
`K4G`: “normalised enrichment score” 5.88.
`S12E` — result for “normalised enrichment score”: 7.05.
For `A9V`, “normalised enrichment score” read 8.21.
`G2H`: “normalised enrichment score” 8.23.
Under “normalised enrichment score”, `E10R` is recorded as 6.79.
Under “normalised enrichment score”, `K4L` is recorded as 4.13.
`S12V`: “normalised enrichment score” 8.15.
`E10K`: “normalised enrichment score” 6.63.
`K6M` — result for “normalised enrichment score”: 7.75.
Under “normalised enrichment score”, `A9I` is recorded as 8.12.
`E10C`: “normalised enrichment score” 7.83.
`A9K`: “normalised enrichment score” 7.82.
`F8Q`: “normalised enrichment score” 1.11.

Sample 2 — method: DHFR PCA, dose-response; sample: yeast; notes: Hill fit, mean, not affinity; together with: (+)-ABA, dose series; reading: lower = more sensitive
Target: ABI1, truncated, D143A, DHFR fusion (Arabidopsis thaliana, UniProt P49597)
Starting sequence: PYL1, truncated, DHFR fusion (Arabidopsis thaliana, UniProt Q8VZS8); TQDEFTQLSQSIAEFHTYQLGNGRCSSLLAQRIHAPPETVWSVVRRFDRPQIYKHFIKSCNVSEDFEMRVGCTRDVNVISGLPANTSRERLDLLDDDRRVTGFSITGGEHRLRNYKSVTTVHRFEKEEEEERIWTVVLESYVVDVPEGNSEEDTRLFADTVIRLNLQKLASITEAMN
`R88K` has an ABA EC50 of 1.98 µM.
With `T39A` the ABA EC50 was 2.54 µM.
For `E14V`, the ABA EC50 was 15.9 µM.
For `E130Q`, the ABA EC50 was 2.02 µM.
With `E67L` the ABA EC50 was 8.27 µM.
`Q19E` has an ABA EC50 of 1.9 µM.
The ABA EC50 of `I133F` is reported as 2.36 µM.
The ABA EC50 of `E130K` is reported as 2.07 µM.

Sample 3 — method: RNA Bind-n-Seq; molecule type: RNA; sample: in vitro; tested at: 1 µM; notes: whole 134-nt RNA, ends assumed; together with: 150 mM KCl; baseline: input library; reading: higher = stronger binding
Target: Ras GTPase-activating protein-binding protein 1, RRM domain (G3BP1, Homo sapiens, UniProt Q13283)
UniProt Q13283, sequence (whole entry, looked up): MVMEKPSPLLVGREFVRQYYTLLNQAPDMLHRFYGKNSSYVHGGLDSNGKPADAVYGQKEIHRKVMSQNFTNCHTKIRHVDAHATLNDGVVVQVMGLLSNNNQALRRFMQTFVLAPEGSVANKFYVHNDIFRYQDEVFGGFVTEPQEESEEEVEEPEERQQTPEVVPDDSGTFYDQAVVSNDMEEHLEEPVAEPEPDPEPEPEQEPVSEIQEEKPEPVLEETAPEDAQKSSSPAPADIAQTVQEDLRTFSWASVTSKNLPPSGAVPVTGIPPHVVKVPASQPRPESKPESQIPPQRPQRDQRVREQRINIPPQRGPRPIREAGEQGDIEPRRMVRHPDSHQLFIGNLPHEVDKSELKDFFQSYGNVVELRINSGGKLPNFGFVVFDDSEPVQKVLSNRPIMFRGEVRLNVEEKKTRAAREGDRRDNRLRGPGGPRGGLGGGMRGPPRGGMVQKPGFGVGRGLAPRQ
All sequences stand within: GGGAGUUCUACAGUCCGACGAUC … UGGAAUUCUCGGGUGUCAAGG
`UCCUGUGCUACACAUCGUAUGUACCGAAUCGGGGUUUUUGGGGAGGGGAAAAAAAGGGGAAAGUAUUAUGUUACGCCGUUCGGAUCUGCA` has a log2 enrichment of 0.574.
With `ACCAUGCAGGUGGGCAUCUUUGGGAAGUGGGGCAAGGGGGGGAUAGGGAGGGGGGUAACACUUUGGGAACAUGUGGUCCCAGGUCGUUUC` the log2 enrichment was 0.752.
For `GCAGGAAGUAAUAACAAAUGGAAAUGCUUCGGAUAGUGGCAGGGGUGGGGGUUGCUAAGGAAAGGGUGGGAUGGGAGUGGGUAAAGAGUU`, the log2 enrichment was 0.96.
With `UCAAGUCCUGUGCUACACAUCGUAUGUACCGAAUCGGGAGGGUUUGGGAAAGGGAAAGUAUUAUGUUACGCCGUUCGGAUCUGCACUUCC` the log2 enrichment was 0.704.
`CACAGACAACACGCACCCACACAGACACAGAGGGAAGGGGUUGGGAUGGGGACAGGGUGCACAGUAGGGCGGGGUAGGACCCCAGCCCCU` gave a log2 enrichment of 0.383.
`AGAUGAACAAGAGAACUGGGCAACCCAUGAUCCACAUCUACCUGGACAAGGAAACAGGAAAGCCCAAAGGCGAUGCCACAGUGUCCUAUG` has a log2 enrichment of -0.114.
`CAAGUCCUGUGCUACACAUCGUAUGUACCGAAUCGGCCCGGGGCCCGGGGCCCGGAAAGUAUUAUGUUACGCCGUUCGGAUCUGCACUUC` gave a log2 enrichment of -1.45.
The log2 enrichment of `GUCCUGUGCUACACAUCGUAUGUACCGAAUCGGUUUUUUGGGUUUUUUGGGUUUUUUGGAAAGUAUUAUGUUACGCCGUUCGGAUCUGCA` is reported as -0.156.

Other studies, line by line
Starting sequence: PafA, mature enzyme, eGFP fusion (Elizabethkingia meningoseptica, UniProt Q9KJX5); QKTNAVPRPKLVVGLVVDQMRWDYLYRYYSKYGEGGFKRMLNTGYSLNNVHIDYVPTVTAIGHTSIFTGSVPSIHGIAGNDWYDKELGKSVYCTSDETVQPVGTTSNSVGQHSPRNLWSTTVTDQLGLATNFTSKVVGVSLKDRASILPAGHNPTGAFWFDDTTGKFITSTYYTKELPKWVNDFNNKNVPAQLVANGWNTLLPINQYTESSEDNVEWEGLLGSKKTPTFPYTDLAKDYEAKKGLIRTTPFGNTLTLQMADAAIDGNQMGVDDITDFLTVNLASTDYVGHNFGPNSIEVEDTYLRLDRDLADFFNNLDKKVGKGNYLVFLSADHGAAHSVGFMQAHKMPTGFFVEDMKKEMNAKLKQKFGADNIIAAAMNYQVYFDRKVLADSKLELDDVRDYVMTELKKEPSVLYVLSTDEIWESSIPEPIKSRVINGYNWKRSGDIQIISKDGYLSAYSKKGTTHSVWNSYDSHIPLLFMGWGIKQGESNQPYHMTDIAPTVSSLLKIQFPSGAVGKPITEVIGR
For `N188V`, “oxyanion analog dissociation constant” read 1770 nM (tungstate, free oxyanion; microfluidic competitive inhibition; in vitro, cell-free expressed; not given, derived from inhibition constants, unchanged parent 2230 nM; lower = stronger binding).

Some of these lines once more (sample 1):
`K6M` — result for “normalised enrichment score”: 7.75.
Under “normalised enrichment score”, `A9I` is recorded as 8.12.
